Measurements from different studies.
Numbered parts are unrelated; each lists some results of a single study. Changes are numbered by the printed parent chain.

Block 1 — technique: EMSA with sequencing; molecule type: double-stranded DNA, one strand shown; sample: in vitro; tested at: 10 and 20 nM; relative to: negative control set to 0; direction: higher = stronger binding; quantity: normalised bound fraction
Target: Hepatocyte nuclear factor 3-alpha (Foxa1, Mus musculus, UniProt P35582, residues 1-468, full length assumed)
Setting: whole designed probe, mean of two concentrations, ends assumed
Shared flanks, not repeated: GTGAGCGGTGCCCATTGATGGGGAAC … TTTCACTGGGATCGTGGGGAC
Residues (chain): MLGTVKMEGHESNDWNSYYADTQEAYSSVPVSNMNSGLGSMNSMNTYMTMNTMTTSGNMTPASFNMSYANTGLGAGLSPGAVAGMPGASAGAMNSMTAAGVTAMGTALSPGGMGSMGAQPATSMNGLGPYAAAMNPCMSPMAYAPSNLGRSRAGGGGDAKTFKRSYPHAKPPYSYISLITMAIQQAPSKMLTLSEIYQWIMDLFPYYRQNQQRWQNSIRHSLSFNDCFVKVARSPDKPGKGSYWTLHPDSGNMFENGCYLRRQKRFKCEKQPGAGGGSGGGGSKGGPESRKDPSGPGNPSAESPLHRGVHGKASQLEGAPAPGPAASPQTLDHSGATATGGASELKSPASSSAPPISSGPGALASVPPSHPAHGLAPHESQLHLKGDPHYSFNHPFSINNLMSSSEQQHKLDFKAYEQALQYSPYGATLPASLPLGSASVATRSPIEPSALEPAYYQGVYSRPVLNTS
TGATGAGAAACATGATAATTATTTAGTCTGAAAGGATCTTCTCCAATAATTTTTTTTTTCTCCACCCCCGTCGTGATACATTCCTGACTAAATGCAAACAAACCTAAATTGAGGGAAATTCTATGCAATACCTAACCATTATTCATCAAATGTACACAGGAGTACAGTGACACAATCATGGTTCACTGTAACC: 0.306 ratio
ATCTTCCCCCTCTTCCTTGCCCCACCAGCTCACCTTCCCGGGTTATTTGCAGATAGGAAAATAAATAAAGCCGGCATTCGTTAACGCAGTTCTGGCGCAAACTGCTGTTTGCTCTGGATCTAACATGGTCCTTTGGCGAGGCGTGGCTCCGGGAGAGCAAAGCACCGTGTCAGGGCCATGATCCGGGGTGGCC: 0.346 ratio
CACTGTAAAAACTTAGTCAATTTTTTTTTCTAAGAAAGAAAGTAAAGATAATAAAGACCTGTTACCCAATTCTGAGCAGAAGCTGAGTCACTGTGTAAACACACTTCAACTACCGGCCTGCTTTCTCAAGGGTGAATCAATTGCTTTGAACAATGAATGTACTGAGTTCTTTCCAATTTTATCCTGCAGAATA: 0.397 ratio
GGCTGCTTCTCCCTTTTGGCTGTTGTGCATATTGCTGCTATGAACATGGGTGTGCAAATACCTCTTTGAGTCACTGCTTTCACTTCTTTTTAGAAATTACTCAGCAGTGGAATTGCTGAGTCATGTGATAATTCTGTGTTTAATTTTTTTTGAGGAAACTCCATACTGTTCTCATGGTGGCTGCACCATTTAA: 0.0773 ratio
ATCTTCCCCCTCTTCCTTGCCCCACCAGCTCACCTTCCCGGGTTATTTGCAGATAGGAAAATAAATAAAGCCGGCATTCGTTAACGCAGTTCACGCGCATACTGCTGTTTGCTCTGCATGAATCATGGTCCTTACGCGACGCCAGGCTCCGGGAGAGCAAAGCACCGTGTCAGGCGCATGATCCGGGCTCGCC: 0.354 ratio
GGGGCATTAGCAACAGACTTTCATAGCTAAACCCTACTAGTTACAGAGATTTATTTATTAGTCCACTGGGCTAGAAAAAAAGCCATTCATATGTAATCTGGGAGATAATAAAGGCTATCACATTTATGTGTATACTCAAATGGAGCAATTTTAATTAACGTCTAAGTACCTTTACATATATTATAATTATTGT: 0.0591 ratio

Block 2 — technique: protein-binding microarray; molecule type: hairpin DNA; sample: in vitro; tested at: not given; relative to: not given; direction: higher = stronger binding; quantity: median fluorescence
Target: Krueppel-like factor 3, full length (KLF3, Homo sapiens, UniProt P57682, residues 1-345)
Sequence of UniProt P57682 (whole entry, looked up): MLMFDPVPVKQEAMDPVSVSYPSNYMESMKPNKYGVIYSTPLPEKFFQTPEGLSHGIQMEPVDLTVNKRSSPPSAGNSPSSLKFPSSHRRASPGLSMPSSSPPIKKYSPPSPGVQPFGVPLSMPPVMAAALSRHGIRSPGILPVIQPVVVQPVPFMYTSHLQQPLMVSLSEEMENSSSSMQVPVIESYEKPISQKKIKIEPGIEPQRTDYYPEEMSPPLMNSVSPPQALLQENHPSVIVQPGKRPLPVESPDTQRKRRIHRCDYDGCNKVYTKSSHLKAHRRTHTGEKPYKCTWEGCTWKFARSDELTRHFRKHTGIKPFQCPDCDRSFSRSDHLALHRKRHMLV
Setting: whole hairpin DNA, median over replicate spots
GAGGCCGACCACTCCCAGCCTCCTGGCTGGGAGTGGTCGGCCTCACACTC: 8180 a.u.
GAGGCCGACCACCGCCAGCCTCCTGGCTGGCGGTGGTCGGCCTCACACTC: 8750 a.u.
GAGGCCGACCGCGCCCGGCCTCCTGGCCGGGCGCGGTCGGCCTCACACTC (5mC at 16): 8910 a.u.
GAGGCCGACCGCGCCCAGCCTCCTGGCTGGGCGCGGTCGGCCTCACACTC (5mC at 9): 8550 a.u.
GAGGCCGACCACGCCCCGCCTCCTGGCGGGGCGTGGTCGGCCTCACACTC: 11100 a.u.
GAGGCCGACCTCGCCCAGCCTCCTGGCTGGGCGAGGTCGGCCTCACACTC: 8210 a.u.
GAGGCCGACTACGCCCAGCCTCCTGGCTGGGCGTAGTCGGCCTCACACTC: 7690 a.u.
GAGGCCGACCGCGGCCAGCCTCCTGGCTGGCCGCGGTCGGCCTCACACTC: 8310 a.u.
GAGGCCGACCGCCCCCAGCCTCCTGGCTGGGGGCGGTCGGCCTCACACTC: 8760 a.u.
GAGGCCCGCCACGCCCAGCCTCCTGGCTGGGCGTGGCGGGCCTCACACTC (5mC at 37): 9290 a.u.
GAGGCCGACCGCGCCCAGCCTCCTGGCTGGGCGCGGTCGGCCTCACACTC (5mC at 10 12 32): 8530 a.u.
GAGGCCGACCACGCCCCGCCTCCTGGCGGGGCGTGGTCGGCCTCACACTC (5mC at 17): 11600 a.u.
GAGGCCGACGACGCCCAGCCTCCTGGCTGGGCGTCGTCGGCCTCACACTC (5mC at 35): 8260 a.u.
GAGGCCGACCGCGCCCTGCCTCCTGGCAGGGCGCGGTCGGCCTCACACTC: 9080 a.u.
GAGGCCGACCGCGCCCAGCCTCCTGGCTGGGCGCGGTCGGCCTCACACTC (5mC at 10 32 34): 8530 a.u.
GAGGCCGACCACGCCCAGCCTCCTGGCTGGGCGTGGTCGGCCTCACACTC (5mC at 12 32): 8620 a.u.
GAGGCCCGCCACGCCCAGCCTCCTGGCTGGGCGTGGCGGGCCTCACACTC (5mC at 7 37): 9000 a.u.
GAGGCCGACCGCGCGCAGCCTCCTGGCTGCGCGCGGTCGGCCTCACACTC (5mC at 30): 9210 a.u.
GAGGCCGACCGCGTCCAGCCTCCTGGCTGGACGCGGTCGGCCTCACACTC: 8400 a.u.
GAGGCCGACCACGCCGAGCCTCCTGGCTCGGCGTGGTCGGCCTCACACTC (5mC at 15 29): 9340 a.u.
GAGGCCGACCGCGCCCAGCCTCCTGGCTGGGCGCGGTCGGCCTCACACTC (5mC at 16): 9010 a.u.

Block 3 — technique: universal PBM; molecule type: double-stranded DNA, one strand shown; sample: in vitro; tested at: not given; direction: higher = stronger binding; quantity: E-score
Target: Sal-like protein 4, full length isoform B (SALL4, Homo sapiens, UniProt Q9UJQ4-2, residues 1-616)
Setting: 8-mer, flanks averaged, mean of replicates
ACGTAGCA: -0.0206
CGGTGAAG: -0.102
ACGCTATC: -0.132
TTCCCCAA: -0.103
CATTAACC: 0.131
CGATATCA: 0.148
ATCACGGC: -0.0215
AACCGCAA: -0.0436
ATCGAGTC: 0.0627
TATGGCGA: -0.0734
CTCGTCCA: -0.0813
TCCCTGCA: -0.192
GACTCGGA: -0.312
CAACCTAC: 0.00074
TTATGAAA: 0.456
CGATAGCG: -0.0827
ATTGTGAA: 0.209
CTTTCGTC: -0.0203
AGCACAAG: -0.0366
CAGGGGTC: -0.241
GAATGTGA: 0.0433
TAAGGACA: -0.0642
AAATTAAC: 0.249
CAGACCTG: -0.189
AAATGTCT: 0.164

Block 4 — technique: protein binding microarray; molecule type: double-stranded DNA, one strand shown; sample: in vitro; tested at: not given; relative to: not given; direction: higher = stronger binding; quantity: E-score
Target: Histone acetyltransferase KAT6A, both winged helices, GST fusion (KAT6A, Homo sapiens, UniProt Q92794, residues 1-181)
Setting: 8-mer, flanks averaged, mean of 2 arrays, mostly near background
Target sequence (chain): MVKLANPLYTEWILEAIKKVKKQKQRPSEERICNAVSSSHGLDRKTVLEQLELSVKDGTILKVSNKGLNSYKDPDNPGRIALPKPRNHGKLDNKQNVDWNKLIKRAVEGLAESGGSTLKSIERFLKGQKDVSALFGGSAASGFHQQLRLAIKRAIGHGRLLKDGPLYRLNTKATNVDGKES
GACAAAAC: -0.109
CGTCTGAC: 0.0308
AAAATTGA: -0.134
ACGACAAT: -0.129
CGTGTGTA: 0.0278
ATTCCCTA: -0.0709
ACATTGGT: -0.215
CGACCTTA: 0.0599
AGCGCACA: 0.133
CTCCGAGA: 0.00358
GCGGTCAC: 0.199
AGTCTGAG: -0.227
TCACCCCA: -0.116
CTGTTTAA: 0.125
AAAGAGAT: -0.0613
AGTGACAC: 0.0461

Block 5 — technique: protein-binding microarray; molecule type: double-stranded DNA, one strand shown; sample: in vitro; tested at: 2540 nM top; setting: 60-bp whole probe; together with: salmon DNA 0.4 mg/ml; relative to: random background probes; direction: higher = stronger binding; quantity: fitted relative affinity; shared flanks, not repeated: GCCTAGCAC … GTCTTGATTCGCTTGACGCTGCTG
Target: Interferon regulatory factor 3, full length, phosphomimetic (IRF3, Homo sapiens, UniProt Q14653, residues 1-427, S386D/S396D/S398D/S402D/T404D/S405D)
Construct (chain): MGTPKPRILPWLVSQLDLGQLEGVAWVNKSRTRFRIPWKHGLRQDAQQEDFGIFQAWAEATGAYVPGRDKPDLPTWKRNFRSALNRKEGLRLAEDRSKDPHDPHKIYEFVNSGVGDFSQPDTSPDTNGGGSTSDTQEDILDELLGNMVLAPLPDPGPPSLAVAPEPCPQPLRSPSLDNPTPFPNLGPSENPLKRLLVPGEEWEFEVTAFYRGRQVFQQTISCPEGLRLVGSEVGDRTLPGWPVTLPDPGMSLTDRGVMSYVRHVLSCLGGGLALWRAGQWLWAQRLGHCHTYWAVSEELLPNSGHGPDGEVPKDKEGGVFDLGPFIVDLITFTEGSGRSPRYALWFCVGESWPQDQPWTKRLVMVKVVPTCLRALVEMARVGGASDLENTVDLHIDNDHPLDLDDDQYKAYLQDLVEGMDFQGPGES
TCATCTTTGCTTCACCCACTGTGCTAG: 0.722 z-score
GACGATTTCGGGACGGGAGACGTGCTA: 1.52 z-score
TTAGGTATCCTTCTCATTTAGTGCTAG: 7.52 z-score
AGTATGTTCACTATTTAAGAGTGCTAG: 0.877 z-score
ACCATTTTGTTTTTCATTATGTGCTAG: 3.6 z-score
TTAGGTCTCGGTATCTGTTAGTGCTAG: 1.23 z-score
CACGATCTCAGTTTCGAGACGTGCTAG: 2.29 z-score
TTTCCTTTATGTCCTGTCTAGTGCTAG: 9.07 z-score
GACGATATCGGGACTGGAGTCGTGCTA: 0.412 z-score
CTTAGTATTTTTTTCCAGAGGTGCTAG: 1.28 z-score
GACGGTTTCGACTATAGGGACGTGCTA: 2.83 z-score
GACCGTATCGGACTGGGGACGTGCTAG: 1.98 z-score
GACGGACTTCTTCTCCTGACGTGCTAG: 0.391 z-score
GACGAACTGATACTGGAGACGTGCTAG: 0.382 z-score
TTCGATTTCGGGACTGGATTAGTGCTA: 2.24 z-score
TTATGTCTCCTTATCCTTTAGTGCTAG: 2.81 z-score
TTAGGTATCGTCTATCGGTTAGTGCTA: 0.394 z-score
GACGATTTCAGTTCTGAGACGTGCTAG: 3.23 z-score
GACGGTATCGGGTATCGGGCCGTGCTA: 1.39 z-score
CTAGGTATCGGTATCGGTTAGTGCTAG: 5.31 z-score

Block 6 — target: CCNB3, cyclin fold, Cln2 fusion (human); technique: yeast growth competition, sequencing; sample: yeast; setting: weak parent motif; relative to: not given; direction: higher = stronger binding; quantity: normalised enrichment score
Starting sequence: GMNC docking peptide (human); KNAKRNLSSEFAN
R5E: 0.176
K4G: 0.104
S9E: 0.201
N6T: 0.318
A12T: 0.287
A12R: 0.271
A12M: 0.0984
N6S: 0.249
K4A: 0.356
A3D: 0.272
F11I: -0.0343
A3C: 0.596
K4H: -0.257
E10S: 0.0789
K4M: -0.134
K4N: -0.00751
S8C: -0.158
S9P: 0.201
F11G: -0.0103
A3V: 0.852
A12Y: 0.181
N2P: 0.417
S8Q: 0.58

Excerpt of the above (block 3):
ATCACGGC: -0.0215
AACCGCAA: -0.0436
ATCGAGTC: 0.0627
TATGGCGA: -0.0734
CTCGTCCA: -0.0813
TCCCTGCA: -0.192
GACTCGGA: -0.312
CAACCTAC: 0.00074
TTATGAAA: 0.456
CGATAGCG: -0.0827
ATTGTGAA: 0.209
CTTTCGTC: -0.0203
AGCACAAG: -0.0366
CAGGGGTC: -0.241
GAATGTGA: 0.0433
TAAGGACA: -0.0642
AAATTAAC: 0.249
